Published values pooled from the literature.
Protocols differ between the studies behind these lines.

| Structure (SMILES) | assay | system | conditions | how to read | Cmax |
| --- | --- | --- | --- | --- | --- |
| O=C(c1ccc(OCCN2CCCCC2)cc1)c1c(-c2ccc(O)cc2)sc2cc(O)ccc12 | – | healthy humans, plasma | oral, 60 mg, with: water | – | 0.36 nM |
| CC1(COc2ccc3c(c2)ncn3-c2ccc3cccc(N4CCC(N)CC4)c3n2)COC1 | – | human | oral, 100 mg/m2, first dose, crushed in applesauce | baseline: whole tablets | no effect |
| CNC(=O)c1ccc(-c2cnc3ncc(Cc4ccc5ncccc5c4)n3n2)cc1F | – | healthy human subjects, plasma | oral, 400 mg, arithmetic mean, alone | – | 3330 ng/mL |
| CN1CC(=O)N2[C@H](c3ccc4c(c3)OCO4)c3[nH]c4ccccc4c3C[C@@H]2C1=O | – | human | oral, 40 mg, free combination, US-sourced, fasted, geometric mean, with: macitentan 10 mg | – | 506 ng/mL |
| N[C@]1(C(=O)O)[C@H]2[C@@H](C[C@@H]1F)[C@@H]2C(=O)O | – | human, fed, plasma | oral, 40 mg multiple, day 14 | – | 124 ng/mL |
| COc1cc(F)c(F)c(Nc2ccc(I)cc2F)c1NS(=O)(=O)C1(C[C@H](O)CO)CC1 | – | human patients, plasma | oral, 50 mg twice daily, cycle 1 day 15, with: copanlisib 0.4 mg/kg intravenous weekly | – | 1080 ng/mL |
| COc1c(N2C[C@@H]3CCCN[C@@H]3C2)c(F)cc2c(=O)c(C(=O)O)cn(C3CC3)c12 | – | human | oral, 400 mg single dose, geometric mean | – | 1960 ng/mL |
| Cn1ncc(Cl)c1-c1cc(C(=O)N[C@H](CN)Cc2ccc(F)c(F)c2)oc1Cl | – | human patients, plasma | oral, 150 mg once daily, day 15, repeat dose | – | 901 to 932 ng/mL |
| CC(C)(Sc1ccncc1-c1ccc(C#N)c2ccccc12)C(=O)O | – | human, plasma | oral, 5 mg, with: febuxostat 80 mg | – | 7.54 ng/mL |
| O=C1NC(=O)[C@@H](c2cn3c4c(cccc24)CCC3)[C@@H]1c1c[nH]c2ccccc12 | – | human, plasma | oral, 240 mg, cycle 1 day 5, steady state, with: topotecan intravenous | – | 1430 ng/mL |
| CCc1nc(C(N)=O)c(Nc2ccc(N3CCC(N4CCN(C)CC4)CC3)c(OC)c2)nc1NC1CCOCC1 | – | healthy humans, after high-fat breakfast, plasma | oral, 40 mg, single dose | – | 28.6 ng/mL |
| CCCCC1(CCCC)CN(c2ccccc2)c2cc(SC)c(OCC(=O)N[C@@H](C(=O)NCC(=O)O)c3ccccc3)cc2S(=O)(=O)C1 | LC-MS/MS | human, plasma | oral, 10 mg, single dose, before breakfast | – | 0.344 ng/mL |
| O=C(O)CC[C@H]1CC[C@@](c2cc(F)ccc2F)(S(=O)(=O)c2ccc(Cl)cc2)CC1 | – | human children, plasma | oral, 1000 mg/m^2 weekly | – | 75200 ng/mL |
| CNCc1ccc(-c2[nH]c3cc(F)cc4c3c2CCNC4=O)cc1 | – | human cancer patients, plasma | intravenous, 8 mg/m2, day 1, with: temozolomide 100 | – | 473 ng/mL |
| O=C(c1cccnc1-c1ccncc1)N1CCC(O)(Cc2ccccc2)CC1 | – | healthy human, plasma | oral, 100 mg once daily, day 14, arithmetic mean | – | 481 ng/mL |
| CCOc1ccc(Cc2cc([C@@H]3O[C@H](SC)[C@@H](O)[C@H](O)[C@H]3O)ccc2Cl)cc1 | – | human, plasma | oral, 150 mg, range of daily means | – | 82.5 to 115 ng/mL |
| CC(C)c1nc(N(C)S(C)(=O)=O)nc(-c2ccc(F)cc2)c1/C=C/[C@@H](O)C[C@@H](O)CC(=O)O | – | human, plasma | oral, 20 mg, alone, geometric LS mean | – | 5.04 ng/mL |
| CS(=O)(=O)OC[C@H](O)[C@@H](O)COS(C)(=O)=O | – | human patients, plasma | intravenous infusion, 14 g/m^2, day -4, 2-hour infusion | – | 435000 ng/mL |

Repeated from above:
| Structure (SMILES) | assay | system | conditions | how to read | Cmax |
| --- | --- | --- | --- | --- | --- |
| CCCCC1(CCCC)CN(c2ccccc2)c2cc(SC)c(OCC(=O)N[C@@H](C(=O)NCC(=O)O)c3ccccc3)cc2S(=O)(=O)C1 | LC-MS/MS | human, plasma | oral, 10 mg, single dose, before breakfast | – | 0.344 ng/mL |
| O=C(O)CC[C@H]1CC[C@@](c2cc(F)ccc2F)(S(=O)(=O)c2ccc(Cl)cc2)CC1 | – | human children, plasma | oral, 1000 mg/m^2 weekly | – | 75200 ng/mL |
